# Measured values of several laboratories.
# Each numbered part is a random draw from the data of one study; scales do not carry over between parts.
# UniProt P07270, sequence (whole entry, looked up): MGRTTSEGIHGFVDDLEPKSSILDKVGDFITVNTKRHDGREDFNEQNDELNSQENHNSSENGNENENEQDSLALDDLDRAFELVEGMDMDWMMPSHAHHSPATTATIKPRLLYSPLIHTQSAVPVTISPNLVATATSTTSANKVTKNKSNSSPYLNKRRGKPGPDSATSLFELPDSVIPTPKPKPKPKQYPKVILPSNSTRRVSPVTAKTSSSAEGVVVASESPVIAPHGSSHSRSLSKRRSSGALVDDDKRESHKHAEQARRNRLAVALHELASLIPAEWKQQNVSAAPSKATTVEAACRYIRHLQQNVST

# Series 1 — technique: RNA Bind-n-Seq; form: RNA; matrix: in vitro; concentration: 20 nM; setting: 6-mer, flanks averaged, single round; together with: 150 mM LiCl; relative to: input library; direction: higher = stronger binding
# Target: TAR DNA-binding protein 43, full length, His tag (TARDBP, Homo sapiens, UniProt Q13148, residues 1-414)
Strand,6-mer enrichment (R)
GUGACU,0.963
CUAGCA,0.827
CCUUAC,0.957

# Series 2 — technique: protein binding microarray; form: double-stranded DNA, one strand shown; matrix: in vitro; concentration: not given; relative to: not given; direction: higher = stronger binding
# Target: Histone acetyltransferase KAT6A, winged helix 1, GST fusion (KAT6A, Homo sapiens, UniProt Q92794, residues 1-85)
# Setting: 8-mer, flanks averaged, mean of 2 arrays, mostly near background
# Target sequence (chain): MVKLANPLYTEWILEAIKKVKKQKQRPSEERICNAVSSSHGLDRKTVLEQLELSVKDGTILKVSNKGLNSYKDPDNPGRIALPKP
Strand,E-score
ATAGTCAG,-0.12
AACTATTG,0.0104
GATTGCAA,-0.271

# Further values, each from its own experiment
# CBF1 full length, N-terminal tag: Centromere-binding protein 1, full length, N-terminal tag (CBF1, Saccharomyces cerevisiae, UniProt P17106, residues 1-351)
# UniProt P17106, sequence (whole entry, looked up): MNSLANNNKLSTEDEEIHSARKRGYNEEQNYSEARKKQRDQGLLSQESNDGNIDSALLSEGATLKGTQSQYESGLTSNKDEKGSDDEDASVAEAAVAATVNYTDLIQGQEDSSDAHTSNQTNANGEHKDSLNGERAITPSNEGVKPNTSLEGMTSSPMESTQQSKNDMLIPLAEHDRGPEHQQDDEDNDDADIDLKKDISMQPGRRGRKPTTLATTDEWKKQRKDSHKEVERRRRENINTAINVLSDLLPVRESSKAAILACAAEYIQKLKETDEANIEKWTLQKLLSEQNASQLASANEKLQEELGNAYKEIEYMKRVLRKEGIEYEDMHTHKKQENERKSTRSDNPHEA
Molecule,target,test,system,setting,scale,quantity,value
ATAGGTTCAAACTTCGGCGTGCTAAAAGTATATACCGTCTTGATTCGCTTGACGCTGCTG,"Phosphate system positive regulatory protein PHO4, full length, GST-tagged (PHO4, Saccharomyces cerevisiae, UniProt P07270, residues 1-312)",competition protein-binding microarray,"double-stranded DNA, one strand shown, in vitro","2 µM, whole 60-bp probe, lowest competitor level, together with: Cbf1 competitor, 0.05 µM",higher = stronger binding,fluorescence intensity,7510 a.u.
"PhoQ, residues 284 288 289 292 302 303 AGGCYF","PhoP, residues 12 14 15 18 19 NHFRA (Escherichia coli, UniProt P23836)","Sort-seq, item: YFP reporter",E. coli,"PhoQ-PhoP variant library, together with: 10 µM Mg2+","relative to: high Mg2+ state, higher = stronger signaling",fold induction,5.13
CTAATTTTAGTTAAGCACATGCATACATAAATTTTCGTCTTGATTCGCTTGACGCTGCTG,"CBF1 full length, N-terminal tag",protein-binding microarray,"double-stranded DNA, one strand shown, in vitro","0.8 µM, whole 60-bp probe, no competitor",higher = stronger binding,fluorescence intensity,968 a.u.
CTAAAAAACAATGGAAACATCAGAAAGATATTTTTCGTCTTGATTCGCTTGACGCTGCTG,"CBF1 full length, N-terminal tag",protein-binding microarray,"double-stranded DNA, one strand shown, in vitro","0.8 µM, whole 60-bp probe, no competitor",higher = stronger binding,fluorescence intensity,907 a.u.
GAACATTTAGTACCTCACGCATTACATATCTCATAGGTCTTGATTCGCTTGACGCTGCTG,"CBF1 full length, N-terminal tag",protein-binding microarray,"double-stranded DNA, one strand shown, in vitro","0.8 µM, whole 60-bp probe, no competitor",higher = stronger binding,fluorescence intensity,579 a.u.

# Repeated from above (further values, each from its own experiment):
Molecule,target,test,system,setting,scale,quantity,value
ATAGGTTCAAACTTCGGCGTGCTAAAAGTATATACCGTCTTGATTCGCTTGACGCTGCTG,"Phosphate system positive regulatory protein PHO4, full length, GST-tagged (PHO4, Saccharomyces cerevisiae, UniProt P07270, residues 1-312)",competition protein-binding microarray,"double-stranded DNA, one strand shown, in vitro","2 µM, whole 60-bp probe, lowest competitor level, together with: Cbf1 competitor, 0.05 µM",higher = stronger binding,fluorescence intensity,7510 a.u.
